# Assay results pooled from the literature.
# Numbered parts are unrelated; each lists some results of a single study. Values joined by “and” are separate records of one study, mostly repeats; a detail may differ.
# Sequence of UniProt P27361 (whole entry, looked up): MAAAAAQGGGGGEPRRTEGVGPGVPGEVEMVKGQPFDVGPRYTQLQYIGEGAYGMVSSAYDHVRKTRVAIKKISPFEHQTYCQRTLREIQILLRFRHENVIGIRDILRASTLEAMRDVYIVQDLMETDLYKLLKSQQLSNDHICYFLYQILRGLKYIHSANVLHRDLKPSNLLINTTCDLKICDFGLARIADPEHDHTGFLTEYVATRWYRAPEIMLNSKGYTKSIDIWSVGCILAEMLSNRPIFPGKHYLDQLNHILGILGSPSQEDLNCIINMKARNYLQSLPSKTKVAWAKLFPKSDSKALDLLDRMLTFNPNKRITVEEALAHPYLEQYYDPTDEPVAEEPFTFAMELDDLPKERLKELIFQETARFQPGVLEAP
# Sequence of UniProt P78368 (whole entry, looked up): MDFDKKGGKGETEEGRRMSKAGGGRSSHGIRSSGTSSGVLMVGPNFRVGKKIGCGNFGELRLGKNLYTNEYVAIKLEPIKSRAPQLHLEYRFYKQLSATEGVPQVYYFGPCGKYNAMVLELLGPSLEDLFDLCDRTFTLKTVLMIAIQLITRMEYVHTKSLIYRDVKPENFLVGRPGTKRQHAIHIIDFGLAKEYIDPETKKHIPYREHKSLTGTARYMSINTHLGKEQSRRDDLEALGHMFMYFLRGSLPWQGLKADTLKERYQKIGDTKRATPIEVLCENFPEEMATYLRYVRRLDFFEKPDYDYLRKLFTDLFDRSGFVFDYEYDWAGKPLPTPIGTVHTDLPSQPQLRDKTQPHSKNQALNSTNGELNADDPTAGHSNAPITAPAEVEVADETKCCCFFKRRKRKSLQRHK
# Sequence of UniProt P49137 (whole entry, looked up): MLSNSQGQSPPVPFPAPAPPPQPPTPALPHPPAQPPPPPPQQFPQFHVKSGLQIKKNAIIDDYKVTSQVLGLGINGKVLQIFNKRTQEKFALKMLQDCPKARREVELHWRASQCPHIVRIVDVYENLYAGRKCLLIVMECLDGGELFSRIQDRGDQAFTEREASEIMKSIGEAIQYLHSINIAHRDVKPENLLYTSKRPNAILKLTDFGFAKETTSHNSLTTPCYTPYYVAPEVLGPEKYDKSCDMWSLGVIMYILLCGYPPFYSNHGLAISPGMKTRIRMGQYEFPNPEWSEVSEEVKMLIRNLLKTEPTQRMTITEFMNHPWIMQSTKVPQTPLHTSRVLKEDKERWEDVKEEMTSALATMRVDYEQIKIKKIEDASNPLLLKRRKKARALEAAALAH
# Sequence of UniProt P42685 (whole entry, looked up): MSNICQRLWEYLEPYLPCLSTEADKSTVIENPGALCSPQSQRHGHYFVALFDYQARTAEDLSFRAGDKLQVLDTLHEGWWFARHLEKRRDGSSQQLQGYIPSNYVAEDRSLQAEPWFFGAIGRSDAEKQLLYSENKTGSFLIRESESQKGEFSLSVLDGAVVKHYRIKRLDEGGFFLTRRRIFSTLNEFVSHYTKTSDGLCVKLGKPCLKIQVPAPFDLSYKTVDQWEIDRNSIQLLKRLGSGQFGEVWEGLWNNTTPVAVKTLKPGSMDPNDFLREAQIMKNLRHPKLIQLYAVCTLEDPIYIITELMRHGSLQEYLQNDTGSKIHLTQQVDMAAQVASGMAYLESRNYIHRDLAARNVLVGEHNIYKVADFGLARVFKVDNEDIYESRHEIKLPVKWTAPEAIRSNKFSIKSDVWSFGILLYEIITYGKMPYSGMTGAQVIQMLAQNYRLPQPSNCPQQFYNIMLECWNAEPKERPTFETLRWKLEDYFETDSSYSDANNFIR
# Sequence of UniProt P06239 (whole entry, looked up): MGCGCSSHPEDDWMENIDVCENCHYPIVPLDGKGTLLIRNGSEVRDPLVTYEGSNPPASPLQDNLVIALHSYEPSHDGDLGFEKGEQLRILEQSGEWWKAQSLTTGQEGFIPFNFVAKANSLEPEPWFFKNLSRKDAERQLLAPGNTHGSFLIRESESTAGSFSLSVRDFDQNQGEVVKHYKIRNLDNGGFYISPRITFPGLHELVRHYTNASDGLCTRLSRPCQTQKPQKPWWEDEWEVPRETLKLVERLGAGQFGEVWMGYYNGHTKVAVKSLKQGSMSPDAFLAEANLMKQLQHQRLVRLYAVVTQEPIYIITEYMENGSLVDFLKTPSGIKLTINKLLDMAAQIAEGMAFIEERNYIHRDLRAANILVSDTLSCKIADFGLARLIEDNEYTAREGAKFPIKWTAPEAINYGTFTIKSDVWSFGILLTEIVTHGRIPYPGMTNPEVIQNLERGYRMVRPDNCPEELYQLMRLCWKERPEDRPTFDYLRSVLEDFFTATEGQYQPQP
# Sequence of UniProt Q9UHD2 (whole entry, looked up): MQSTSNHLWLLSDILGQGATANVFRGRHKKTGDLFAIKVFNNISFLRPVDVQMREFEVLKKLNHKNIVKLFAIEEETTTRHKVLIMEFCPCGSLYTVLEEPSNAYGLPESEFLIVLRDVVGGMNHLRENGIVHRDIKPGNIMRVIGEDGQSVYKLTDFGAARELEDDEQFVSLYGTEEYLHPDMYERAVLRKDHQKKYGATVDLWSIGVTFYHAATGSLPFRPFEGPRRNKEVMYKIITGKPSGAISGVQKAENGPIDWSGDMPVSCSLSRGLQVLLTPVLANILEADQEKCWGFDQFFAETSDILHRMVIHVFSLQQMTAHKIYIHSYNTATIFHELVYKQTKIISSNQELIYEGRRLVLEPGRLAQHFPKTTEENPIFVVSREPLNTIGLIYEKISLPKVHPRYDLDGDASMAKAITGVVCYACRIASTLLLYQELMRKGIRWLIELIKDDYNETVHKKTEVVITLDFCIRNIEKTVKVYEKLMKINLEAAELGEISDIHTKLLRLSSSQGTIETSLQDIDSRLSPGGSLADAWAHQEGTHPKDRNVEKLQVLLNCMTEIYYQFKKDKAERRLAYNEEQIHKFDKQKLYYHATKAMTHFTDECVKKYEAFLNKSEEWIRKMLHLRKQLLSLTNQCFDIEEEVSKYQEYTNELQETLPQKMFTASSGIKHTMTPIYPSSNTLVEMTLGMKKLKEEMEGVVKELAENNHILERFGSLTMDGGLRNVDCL
# Sequence of UniProt P11362 (whole entry, looked up): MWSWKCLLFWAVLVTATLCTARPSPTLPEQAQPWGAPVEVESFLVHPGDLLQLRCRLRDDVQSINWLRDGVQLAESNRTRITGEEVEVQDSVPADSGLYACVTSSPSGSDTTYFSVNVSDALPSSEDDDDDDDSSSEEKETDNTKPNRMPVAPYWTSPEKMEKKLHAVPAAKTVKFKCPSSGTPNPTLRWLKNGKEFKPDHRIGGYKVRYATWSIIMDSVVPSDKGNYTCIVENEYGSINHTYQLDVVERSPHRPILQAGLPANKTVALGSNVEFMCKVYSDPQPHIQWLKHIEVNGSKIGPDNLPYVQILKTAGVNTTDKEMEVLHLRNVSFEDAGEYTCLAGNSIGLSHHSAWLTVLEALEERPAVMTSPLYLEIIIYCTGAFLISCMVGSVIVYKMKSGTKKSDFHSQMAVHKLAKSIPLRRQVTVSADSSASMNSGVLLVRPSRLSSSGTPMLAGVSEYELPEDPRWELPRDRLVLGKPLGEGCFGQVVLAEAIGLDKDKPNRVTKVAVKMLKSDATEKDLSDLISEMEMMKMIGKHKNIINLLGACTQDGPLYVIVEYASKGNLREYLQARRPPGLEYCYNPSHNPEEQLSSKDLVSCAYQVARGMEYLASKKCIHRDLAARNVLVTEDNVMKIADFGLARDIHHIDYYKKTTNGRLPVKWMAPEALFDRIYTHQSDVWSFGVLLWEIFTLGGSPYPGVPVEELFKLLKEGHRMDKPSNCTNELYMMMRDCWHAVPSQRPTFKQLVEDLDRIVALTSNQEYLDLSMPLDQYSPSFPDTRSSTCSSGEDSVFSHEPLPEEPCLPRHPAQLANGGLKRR
# Sequence of UniProt Q9Y6M4 (whole entry, looked up): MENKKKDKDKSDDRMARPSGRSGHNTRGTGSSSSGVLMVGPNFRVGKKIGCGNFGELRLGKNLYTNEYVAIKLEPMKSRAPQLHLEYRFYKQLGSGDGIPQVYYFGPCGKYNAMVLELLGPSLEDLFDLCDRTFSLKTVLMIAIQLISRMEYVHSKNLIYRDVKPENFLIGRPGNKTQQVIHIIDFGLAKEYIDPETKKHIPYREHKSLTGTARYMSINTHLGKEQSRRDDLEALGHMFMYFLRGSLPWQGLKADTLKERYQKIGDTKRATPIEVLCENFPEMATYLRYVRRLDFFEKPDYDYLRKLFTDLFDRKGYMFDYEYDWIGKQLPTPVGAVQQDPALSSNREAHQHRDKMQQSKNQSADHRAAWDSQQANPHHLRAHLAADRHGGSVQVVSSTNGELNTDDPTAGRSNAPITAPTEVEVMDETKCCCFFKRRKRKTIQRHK
# Sequence of UniProt P36896 (whole entry, looked up): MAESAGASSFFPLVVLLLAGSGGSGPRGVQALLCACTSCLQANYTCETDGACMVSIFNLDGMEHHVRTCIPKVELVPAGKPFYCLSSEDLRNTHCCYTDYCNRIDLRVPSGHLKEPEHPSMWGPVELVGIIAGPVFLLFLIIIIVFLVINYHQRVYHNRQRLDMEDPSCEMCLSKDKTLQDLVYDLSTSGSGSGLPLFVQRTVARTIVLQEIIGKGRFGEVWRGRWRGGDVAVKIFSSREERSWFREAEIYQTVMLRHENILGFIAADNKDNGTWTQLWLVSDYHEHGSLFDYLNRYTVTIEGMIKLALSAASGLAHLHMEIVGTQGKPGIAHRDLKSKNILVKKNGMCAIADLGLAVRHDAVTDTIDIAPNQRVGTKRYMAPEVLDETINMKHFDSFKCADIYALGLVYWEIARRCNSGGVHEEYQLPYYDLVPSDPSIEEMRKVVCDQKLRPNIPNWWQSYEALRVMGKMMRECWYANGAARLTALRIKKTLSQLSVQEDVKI

# Series 1 — cell line: mouse MPNST tumor cells; technique: high-content nuclear imaging; item: cell number; concentration: 10 µM; time: 12 h; notes: mean of 2 replicates; relative to: plate mean; reading: higher = more cells
SMILES,nuclei count
Cc1cc(Cn2c(=O)n(Cc3cnc(C)s3)c(=O)c3cc(S(=O)(=O)NC4(C)CC4)ccc32)n(C)n1,1.54 z-score
O=C(OC(C(F)(F)F)C(F)(F)F)N1CCN(Cc2cccc(Oc3ccccc3)c2)CC1,2.14 z-score
CNCCCC12CCC(c3ccccc31)c1ccccc12,-4.59 z-score and -3.84 z-score
CCS(=O)(=O)CCn1c([N+](=O)[O-])cnc1C,1.93 z-score and 0.798 z-score
C[C@]12CC[C@@H]3c4ccc(O)cc4CC[C@H]3[C@@H]1C[C@@H](O)[C@@H]2O,-0.155 z-score
NC(=O)c1ccc(Oc2ccc(C(N)=O)cc2)cc1,0.207 z-score
O=C(O)c1ccc(N2N=C(Cc3ccccc3)C(=Cc3ccc(-c4ccccc4F)o3)C2=O)cc1,0.126 z-score
O=C(NCc1cccc(O)c1)Nc1nc(-c2ccncc2)cs1,-1.63 z-score
CCN1CCCC1CNC(=O)c1cc(S(N)(=O)=O)ccc1OC (racemic),0.971 z-score
CC/C(=C(/CC)c1ccc(O)cc1)c1ccc(O)cc1,0.823 z-score
Cc1[nH]c(/C=C2\C(=O)Nc3ccc(S(=O)(=O)N(C)c4cccc(Cl)c4)cc32)c(C)c1C(=O)N1CCN(C)CC1,0.409 z-score

# Series 2 — observed: enzyme activity; mode: inhibitor; concentration: 0.5 µM; relative to: control
# Structure (SMILES): O=C(NC(NC(=S)Nc1ccc(F)c([N+](=O)[O-])c1)C(Cl)(Cl)Cl)C(c1ccccc1)c1ccccc1 (stereo not drawn)
target,remaining activity [%]
"NEK6 (Homo sapiens, UniProt Q9HC98)",109
"FGFR3 (Homo sapiens, UniProt P22607)",96.8
"FRK (Homo sapiens, UniProt P42685)",103
"CSNK1G3 (Homo sapiens, UniProt Q9Y6M4)",87.7
"LCK (Homo sapiens, UniProt P06239)",91.8
"FGFR1 (Homo sapiens, UniProt P11362)",97.7
"MAPK3 (Homo sapiens, UniProt P27361)",120
"TBK1 (Homo sapiens, UniProt Q9UHD2)",98.7
"CSNK1G2 (Homo sapiens, UniProt P78368)",98.3
"ACVR1B (Homo sapiens, UniProt P36896)",106
"MAPKAPK2 (Homo sapiens, UniProt P49137)",96.3

# Series 3 — sample: hydrocarbon/water; pH: 7.4
SMILES,logD
CCN1CC(=O)NC(CC(C)C)C(=O)N(C)C(C)C(=O)NC(CC(C)C)C(=O)N2CCCC2C(=O)N(CC2CCOCC2)CC(=O)NC(CC(C)C)C(=O)N(C)C(C)C(=O)NC(Cc2ccccc2)C(=O)N2CCCC2C1=O (stereo not drawn),1.96
CC(C)C[C@@H]1NC(=O)CN(CCCOC(C)C)C(=O)[C@H](C)NC(=O)[C@H](CC(C)C)N(C)C(=O)[C@H]2CCCN2C(=O)[C@H](Cc2ccccc2)NC(=O)CN(CC2CCOCC2)C(=O)[C@H](C)NC(=O)[C@H](CC(C)C)N(C)C(=O)[C@H]2CCCN2C1=O,1.26
CCC[C@@H]1NC(=O)CN(CCC)C(=O)[C@H](CC(C)C)NC(=O)Cn2cc(nn2)CN(C)C(=O)[C@H](CC(C)C)NC(=O)[C@H](C)N(C)C(=O)[C@H](CC)NC(=O)[C@H](C)N(C)C(=O)[C@H]2CCCN2C1=O,-2.11
CCC[C@@H]1C(=O)N(C)[C@@H](C)C(=O)N[C@@H](CC(C)C)C(=O)N2CCC[C@@H]2C(=O)N(C)[C@@H](C)C(=O)N[C@@H](CC(C)C)C(=O)N1C,1.18
CC(C)CC1NC(=O)CN(CC2CCOCC2)C(=O)C2CCCN2C(=O)C(CC(C)C)NC(=O)C(C)N(C)C(=O)C(CC(C)C)NC(=O)CN(CCCOC(C)C)C(=O)C2CCCN2C(=O)C(C)NC(=O)C(C)N(C)C1=O (stereo not drawn),1.21
CC(C)C[C@@H]1NC(=O)[C@H](C)N(C)C(=O)[C@H]2CCCN2C(=O)[C@H](CC(C)C)NC(=O)[C@H](C)N(C)C(=O)[C@@H](CC(C)C)N(C)C1=O,1.58

# Further values, each from its own experiment
Structure (SMILES),tested on,test,system,conditions,measurement,value
CC(C)(C)OC(=O)N1CCCC1CNC1CCC(c2cc(F)ccc2F)(S(=O)(=O)c2ccc(Cl)cc2)CC1 (stereo not drawn),HEK293T,high-content imaging,,"concentration not given, 24 h, recommended concentration",healthy nuclei,45%
CC(C)n1cnc(-c2ccc(F)cc2)c1-c1ncc(C(=O)Nc2ccc(N3CCN(C)CC3)cc2)[nH]1,,,IPF patients,"30 mg once daily, adverse event",Eosinophilia incidence,0%

# Some of these lines once more (series 1):
SMILES,nuclei count
O=C(OC(C(F)(F)F)C(F)(F)F)N1CCN(Cc2cccc(Oc3ccccc3)c2)CC1,2.14 z-score
CNCCCC12CCC(c3ccccc31)c1ccccc12,-4.59 z-score and -3.84 z-score
CCS(=O)(=O)CCn1c([N+](=O)[O-])cnc1C,1.93 z-score and 0.798 z-score
